# Measured values of several laboratories.
# Parts stem from different laboratories: compare values within a part only.

# Sample 1 — method: RNA Bind-n-Seq; molecule type: RNA; sample: in vitro; tested at: 100 nM; baseline: input RNA pool; reading: higher = stronger binding
# Target: RING finger protein unkempt homolog, zinc fingers 1-6, SBP tag (UNK, Homo sapiens, UniProt Q9C0B0, residues 30-357)
# UniProt Q9C0B0, sequence (30-357, looked up): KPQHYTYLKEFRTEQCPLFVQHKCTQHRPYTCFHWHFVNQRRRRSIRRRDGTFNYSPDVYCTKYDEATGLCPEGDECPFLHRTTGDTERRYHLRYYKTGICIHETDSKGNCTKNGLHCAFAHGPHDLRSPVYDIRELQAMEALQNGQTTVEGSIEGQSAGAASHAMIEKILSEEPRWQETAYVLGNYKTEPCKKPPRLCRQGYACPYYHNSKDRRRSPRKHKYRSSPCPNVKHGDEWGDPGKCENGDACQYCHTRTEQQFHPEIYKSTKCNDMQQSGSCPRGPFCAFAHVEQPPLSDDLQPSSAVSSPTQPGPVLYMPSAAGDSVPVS
# Notes: RNA with constant flanks, vertebrate orthologous sites, ends assumed
Sequence,bound/input enrichment
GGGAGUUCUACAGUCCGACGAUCUGGACACAGGUGCCCUGUGGAGCCCAGGAGGGAGACGGUCCUUGACUUCUGACCUUGACAUGGUAGAUAGGUGUGUGGUUUUUUUAUUUAAAGACAUUAAGACUUAACCCACUAAAAUUUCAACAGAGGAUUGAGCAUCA,0.357 ratio
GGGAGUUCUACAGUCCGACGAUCGUCCCUCAGUGACAGUAUGCCGUCCGUAGCAGAUUCCCACUCUAGUCACUUUUCUGAGUUUAGUUGUUCUGACCUAGAAAGCAUGAAAACUUCUUGUAGUCAUGGUUCCACUGAUUAUCACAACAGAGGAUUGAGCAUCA,1.01 ratio
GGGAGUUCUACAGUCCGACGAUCUCCUCAACUUGUUCUAGCUGGCGAUCCUUCAAAAUUGGGUCAGGCAUUAGUGCUAGGUACUAGCAAUGUUCAAUUCUCUGUUGCCAUUGAUCAGAGAGACAGACGUUAAAAACAGUAAUACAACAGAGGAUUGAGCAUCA,0.762 ratio
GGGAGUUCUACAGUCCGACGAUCACUGUUGUUAAGCACUGUGUUCCAGACCGUGUCUGACUUAGUGUAAUCUAGGAGAUUUUAUAGUUUUAUUUUAAUGAAACCCUGAUUGACGCACAGCAGUGGAGAGAACAGCGUCUUUUACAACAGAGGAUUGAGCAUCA,1.49 ratio
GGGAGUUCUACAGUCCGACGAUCGGAGGAAGGGCUCACAAACUCAAAGGAAAAAACUAUUAAGAGUUUCUAGUAGUUAAAAGCUAGAAAGAUUAAGACAACUUUACAAAUGAACAAUUAAAAAGAAAAAGGAUAUGGAAACUACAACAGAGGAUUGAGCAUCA,0.543 ratio
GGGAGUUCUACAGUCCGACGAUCCGUACACUCCUACAUGAGUGAAUUAUUAUUGUCUUUCUUUUCUUUUUUUUUACAUUUUGUAUAGAAAACAUUCAUUUAAGCAAACUUAUUAUUAUUAUUAUUUUUUACAAAAUAUAUCUACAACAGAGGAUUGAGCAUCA,1.23 ratio

# Sample 2 — method: protein binding microarray; molecule type: double-stranded DNA, one strand shown; sample: in vitro; tested at: not given; baseline: not given; reading: higher = stronger binding
# Target: Histone acetyltransferase KAT6A, winged helix 1, GST fusion (KAT6A, Homo sapiens, UniProt Q92794, residues 1-85)
# Notes: 8-mer, flanks averaged, mean of 2 arrays, mostly near background
# Target sequence (chain): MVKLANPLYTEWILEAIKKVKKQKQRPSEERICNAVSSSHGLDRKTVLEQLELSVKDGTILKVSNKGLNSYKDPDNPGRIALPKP
Sequence,E-score
AGCAGTCA,-0.143
TAACTGAA,-0.204
AATCAGGG,-0.198
CGCATGGA,0.0177
CAGCACCA,-0.293
GACCATGC,0.11
AGCTCACG,-0.0427
GACATTAA,-0.0373
CCTGAAGG,-0.0446
CCCTGTTC,-0.325

# Sample 3 — method: universal PBM; molecule type: double-stranded DNA, one strand shown; sample: in vitro; tested at: 600 nM; reading: higher = stronger binding
# Target: Sal-like protein 4, full length isoform A (SALL4, Homo sapiens, UniProt Q9UJQ4, residues 1-1053)
# UniProt Q9UJQ4, sequence (whole entry, looked up): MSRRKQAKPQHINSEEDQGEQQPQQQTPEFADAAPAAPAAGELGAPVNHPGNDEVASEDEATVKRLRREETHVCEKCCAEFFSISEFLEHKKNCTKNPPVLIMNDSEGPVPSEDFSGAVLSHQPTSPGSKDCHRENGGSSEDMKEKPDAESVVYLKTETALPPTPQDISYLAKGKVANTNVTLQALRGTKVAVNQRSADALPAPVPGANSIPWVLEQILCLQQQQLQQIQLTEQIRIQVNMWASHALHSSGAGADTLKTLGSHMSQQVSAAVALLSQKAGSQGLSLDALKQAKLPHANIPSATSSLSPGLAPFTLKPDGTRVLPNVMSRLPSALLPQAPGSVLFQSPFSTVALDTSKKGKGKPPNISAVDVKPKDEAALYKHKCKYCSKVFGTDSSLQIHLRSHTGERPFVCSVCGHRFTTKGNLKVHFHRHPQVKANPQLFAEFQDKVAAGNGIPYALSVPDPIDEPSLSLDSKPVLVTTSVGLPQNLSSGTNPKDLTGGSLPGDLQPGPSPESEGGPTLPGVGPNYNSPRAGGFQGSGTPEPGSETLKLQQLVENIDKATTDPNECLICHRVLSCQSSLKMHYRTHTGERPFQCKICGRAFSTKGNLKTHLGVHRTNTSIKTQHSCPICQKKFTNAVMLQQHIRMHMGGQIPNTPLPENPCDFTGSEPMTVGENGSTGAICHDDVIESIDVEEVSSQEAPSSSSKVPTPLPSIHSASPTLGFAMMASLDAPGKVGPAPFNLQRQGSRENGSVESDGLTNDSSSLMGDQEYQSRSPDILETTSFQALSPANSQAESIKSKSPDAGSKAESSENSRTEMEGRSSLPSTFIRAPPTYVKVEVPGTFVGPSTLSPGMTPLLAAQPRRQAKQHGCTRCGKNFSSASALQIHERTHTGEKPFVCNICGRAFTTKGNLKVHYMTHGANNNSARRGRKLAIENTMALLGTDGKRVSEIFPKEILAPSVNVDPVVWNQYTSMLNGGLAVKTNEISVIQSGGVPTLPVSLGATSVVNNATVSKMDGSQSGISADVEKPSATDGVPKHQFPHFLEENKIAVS
# Notes: 8-mer, flanks averaged, mean of replicates
Sequence,E-score
AACACAGT,0.0921
ACTTCCGA,-0.0418
GAATGGTC,-0.187
CCAACTAC,-0.0184
AAGAAGGC,-0.00979
GGCCAGCC,-0.41
ACTCCCCA,0.0602
ATGACAAC,0.135
AATCTTAT,0.28

# Other studies, line by line
Substance,target,assay,system,conditions,scale,endpoint,result
"PhoQ, residues 284 288 289 292 302 303 SCCLKL","PhoP, residues 12 14 15 18 19 VQALL (Escherichia coli, UniProt P23836)","Sort-seq, refers to: YFP reporter",E. coli,"PhoQ-PhoP variant library, added: 10 µM Mg2+","baseline: high Mg2+ state, higher = stronger signaling",fold induction,3.71
